# Published values collected from several papers.
# Numbered parts are unrelated; each lists some results of a single study.

# Study 1
# Target: RNA binding protein fox-1 homolog 2, RRM domain, GST-SBP tag (RBFOX2, Homo sapiens, UniProt O43251-10, residues 100-194)
# Method: RNA Bind-n-Seq
# Form: RNA
# Matrix: in vitro
# Tested at: 365 nM
# Setting: natural RNA segment, single round, ends assumed
# Baseline: no-protein control
# Direction: higher = stronger binding
# Construct (chain): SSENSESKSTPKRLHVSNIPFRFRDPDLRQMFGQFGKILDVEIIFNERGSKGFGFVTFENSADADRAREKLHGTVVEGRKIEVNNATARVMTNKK
Oligonucleotide,RBNS enrichment (R)
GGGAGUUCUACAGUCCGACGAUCCGUACUGAAAUAGGAAGUCAUGCUCUUCCCACCCUCCACCCACCAGAGUGGAACCCGCUGCAAAAUCCCCAGCCUUAAUUCUUGCUUCAGGACCCAGACCGGUGUCUUGCUGGAAUUCUCGGGUGCCAA,0.541
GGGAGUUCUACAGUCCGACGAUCAAUUUAUGUGUAUUCUUAUUCAAAUUGCUUCUGAGAAGCAAAACUCUUUAAAUACAUUAUGGAAGAUAAUGAAGAUACUUCAUUCUCUUGUGAUAUCAGUGUAUGCGUACUGGAAUUCUCGGGUGCCAA,0.329
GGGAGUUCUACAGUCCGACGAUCUAGUUGAGUUGUAUUGCUUCCUGUUCUUCAAGCUUAAUUUGAACUGUCUAAUAAAAAGAAGUAAUUAUUUGGUUCUACUGCCUUUAUUUGAUCUAUUUCUAGGUAUCUCCUGGAAUUCUCGGGUGCCAA,1.15
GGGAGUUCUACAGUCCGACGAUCUUCAUUUGAACGAAGAACUUCAAAAAGCACAGGACUAGAUGAUCUCUGUUCCUUUUGGCUCUAAUAUGCUACAACUGUAGGCCAAUUAUCACUUUACCAAUUAAGAGUUAUGGAAUUCUCGGGUGCCAA,0.736
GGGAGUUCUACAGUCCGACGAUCCCAUUUAUUUCAGAAGGCUGAACAUAAGAGGUUUCUACUCAGCAAUACUUAGAUGUCUAACUGUUUAAUUGCUACAGAGCUUUAUAGAUAUUUAGAGAAAAGACUUAAUCUGGAAUUCUCGGGUGCCAA,0.757
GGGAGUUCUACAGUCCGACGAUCACAUAUUUUUGUACUACAUGGGGACUCUUCCUGCAUGUCAGCAAUAAAACUUCCUGAUCUGGAACCAUGUGGCCUGCGUCUCCUGCCUUCUUGCCUUCCCUGCCUACAUCUGGAAUUCUCGGGUGCCAA,1.05
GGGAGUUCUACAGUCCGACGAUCCAUUCGAAGAGAUCAGGCGCGGUGGCUCACGCCUGUAAUCCCAGCAUUUUGGGAGGCUGAGGCAGGUGGAUCACUUGAGAUCAAGAGCUUAAAACCAGCCCAGGCAACAUUGGAAUUCUCGGGUGCCAA,0.735
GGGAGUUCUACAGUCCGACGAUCGGUAGAGUUUCUUUUUUUCUUUUUGUAAUCAUGAGUUCCCUUGACUCCCCUCUUGAUUUUCUAUCUUGAUUUAUCCUGCAGGCAUGUCCUACCUUUUGACAUUGUGACUUUGGAAUUCUCGGGUGCCAA,1.69
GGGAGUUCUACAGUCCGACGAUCCAAAUGGAGAAUGAGCAUCUAAAAAUGACACAUCCCGAAAGGGCAAUCUGUGGAAGUUUGUUGUUUGUUUGUUUUUAUUUUUAAAUGCAUUGUAAAGUGUACUCUAGAGCUGGAAUUCUCGGGUGCCAA,0.428
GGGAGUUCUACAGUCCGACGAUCAAAAAAAAAAAAAAACUUCCAUUCUUUCUUCCUCCAGUCUGUUCUCACAUAACAGAGUAGUUUUGGUUUUUAAUUUUUUUUGGUUGUUUGCUGUUUUUUGUUUUUUAAGGUGGAAUUCUCGGGUGCCAA,1.51
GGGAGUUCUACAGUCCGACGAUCGCGUGCCCACAGUGGCCGGGCCAUGGCUUAGGCUUCCCUCAUGGUCACUUUGCCCAUUACGUCAGAAGUAAGUGUCUGGGUGUGGUAGUAUAAGUUUCUUAAGGAAUUGUUGGAAUUCUCGGGUGCCAA,0.268

# Study 2
# Substance: PhoQ, residues 284 288 289 292 302 303 SLGVVW
# Method: Sort-seq
# Item: YFP reporter
# Matrix: E. coli
# Setting: PhoQ-PhoP variant library
# With: 10 µM Mg2+
# Baseline: high Mg2+ state
# Direction: higher = stronger signaling
target,fold induction
"PhoP, residues 12 14 15 18 19 AYFRS (Escherichia coli, UniProt P23836)",29.7
"PhoP, residues 12 14 15 18 19 SFCSL (Escherichia coli, UniProt P23836)",29.4
"PhoP, residues 12 14 15 18 19 HHYTI (Escherichia coli, UniProt P23836)",9.98

# Study 3
# Target: Interferon regulatory factor 3, full length, phosphomimetic (IRF3, Homo sapiens, UniProt Q14653, residues 1-427, S386D/S396D/S398D/S402D/T404D/S405D)
# Method: protein-binding microarray
# Form: double-stranded DNA, one strand shown
# Matrix: in vitro
# Tested at: 2540 nM top
# Setting: 60-bp whole probe
# With: salmon DNA 0.4 mg/ml
# Baseline: random background probes
# Direction: higher = stronger binding
# Shared flanks, not repeated: GCCTAGCAC … GTCTTGATTCGCTTGACGCTGCTG
# Target sequence (chain): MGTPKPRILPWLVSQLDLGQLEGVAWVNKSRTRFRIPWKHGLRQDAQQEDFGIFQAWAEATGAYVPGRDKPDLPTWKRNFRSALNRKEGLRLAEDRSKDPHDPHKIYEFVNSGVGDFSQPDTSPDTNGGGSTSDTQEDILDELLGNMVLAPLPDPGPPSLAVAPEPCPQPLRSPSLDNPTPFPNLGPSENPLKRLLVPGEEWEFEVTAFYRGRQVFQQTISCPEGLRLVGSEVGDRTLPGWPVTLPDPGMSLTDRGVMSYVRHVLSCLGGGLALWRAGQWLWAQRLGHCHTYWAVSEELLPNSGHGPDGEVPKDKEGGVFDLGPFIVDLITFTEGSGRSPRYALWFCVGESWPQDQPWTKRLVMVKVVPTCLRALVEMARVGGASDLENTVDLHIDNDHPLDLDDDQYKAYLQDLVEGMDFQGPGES
Oligonucleotide,fitted relative affinity
GGCGGTATCCTTATCCTGACGTGCTAG,5.62 z-score
TTAAGACTGGGTCTCGGTTAGTGCTAG,-0.702 z-score
ATTGCTTCCTCTTTCACTGGGTGCTAG,1.42 z-score
GACGGTATGGACTTTCGGGACGTGCTA,0.217 z-score
TTATCAATCATTTTCGTTTTGTGCTAG,3.03 z-score
TCATTTTTCCCTCTGGAAAAGTGCTAG,2.95 z-score
GACGGACTGGGTCTCGGTACGTGCTAG,-0.556 z-score
TCATCAACCAGTTTTCTTACTGTGCTA,0.628 z-score
TTAGGTTTCCACACTGGGTTAGTGCTA,4 z-score
TAAGAAAAGCCACCAGGACCGTGCTAG,-0.638 z-score
TCATCATTATTGTCTCCCACTGTGCTA,0.375 z-score
GACGGTTTCGGTTCCAGGACGTGCTAG,9.24 z-score
TTAGATATCAGCCTCGATTAGTGCTAG,-0.171 z-score
TCAGGACTGCTTATCCTTTAGTGCTAG,0.0615 z-score
GACGGTCTCCTTTTTCTGACGTGCTAG,4.43 z-score

# Study 4
# Target: PABPC1L2, full length, GST fusion (mouse, UniProt A0ABA7IW68)
# Method: RNAcompete
# Form: RNA
# Matrix: in vitro
# Tested at: 20 nM
# Setting: 7-mer, probes averaged, single round
# Baseline: mean of 7-mers
# Direction: higher = stronger binding
# Residues (chain): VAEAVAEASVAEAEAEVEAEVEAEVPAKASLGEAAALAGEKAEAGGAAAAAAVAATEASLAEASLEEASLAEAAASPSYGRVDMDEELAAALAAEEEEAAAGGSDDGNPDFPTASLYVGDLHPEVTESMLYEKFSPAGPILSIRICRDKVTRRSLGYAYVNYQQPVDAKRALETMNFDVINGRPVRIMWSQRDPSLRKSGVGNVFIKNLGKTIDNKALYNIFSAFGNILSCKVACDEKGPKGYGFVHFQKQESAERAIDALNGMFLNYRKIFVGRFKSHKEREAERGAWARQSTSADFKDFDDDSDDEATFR
Oligonucleotide,7-mer Z-score
GGAGCAC,-0.0464
CGCGCGU,-0.467
CCGCCAC,-0.284
ACCGCGG,-0.17
GUGGAUU,-0.115
AUGAGAC,0.102
GAGCACG,-0.226
CAUAUGC,-0.238
GCCAUUG,-0.0989
AGGGCUU,-0.0736
GGGGGGC,0.423
UAUAAAG,1.95
UACCCUC,-0.398
CUUUACU,-0.0881

# Some of these lines once more (study 3):
Oligonucleotide,fitted relative affinity
TTAGATATCAGCCTCGATTAGTGCTAG,-0.171 z-score
TTATCAATCATTTTCGTTTTGTGCTAG,3.03 z-score
GGCGGTATCCTTATCCTGACGTGCTAG,5.62 z-score
